# Published values pooled from the literature.
# Compare with care: the assays were run in different laboratories. Numbers after ± are the reported error.
# Sequence of UniProt P18054 (whole entry, looked up): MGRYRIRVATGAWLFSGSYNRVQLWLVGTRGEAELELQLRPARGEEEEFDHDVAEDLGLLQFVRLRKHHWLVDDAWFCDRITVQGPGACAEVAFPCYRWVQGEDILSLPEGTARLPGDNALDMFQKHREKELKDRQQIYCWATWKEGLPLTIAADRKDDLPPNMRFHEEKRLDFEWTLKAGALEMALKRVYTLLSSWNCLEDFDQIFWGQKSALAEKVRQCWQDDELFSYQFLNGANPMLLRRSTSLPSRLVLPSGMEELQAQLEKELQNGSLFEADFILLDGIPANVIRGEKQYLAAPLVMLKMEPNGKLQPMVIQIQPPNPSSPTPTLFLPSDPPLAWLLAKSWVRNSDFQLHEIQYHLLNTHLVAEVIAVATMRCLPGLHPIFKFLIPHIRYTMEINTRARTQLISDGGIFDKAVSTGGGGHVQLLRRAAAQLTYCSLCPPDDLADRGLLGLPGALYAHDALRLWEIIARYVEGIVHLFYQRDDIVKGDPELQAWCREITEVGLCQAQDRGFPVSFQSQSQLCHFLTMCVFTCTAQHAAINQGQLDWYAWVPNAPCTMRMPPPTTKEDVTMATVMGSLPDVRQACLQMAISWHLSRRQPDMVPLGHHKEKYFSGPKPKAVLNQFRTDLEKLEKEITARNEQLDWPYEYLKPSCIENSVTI
Compound,target or system,assay,test system,setting,scale,endpoint,result
Fc1ccc(C2=CCNCC2)cc1,Salmonella typhimurium,SOS/umu test,TA1535/pSK1002,"0.002 mg/mL, 4 h, without S9, full range",,survival,97.3%
CC[C@H](C)[C@H](NC(=O)[C@H](Cc1ccccc1)NC(=O)[C@H](CCC(=O)O)NC(=O)[C@H](CCCNC(=N)N)NC(=O)[C@H](C)NC(=O)[C@H](C)NC(=O)[C@H](CCC(N)=O)NC(=O)[C@H](CCC(=O)O)NC(=O)[C@H](CCC(=O)O)NC(=O)[C@H](CC(C)C)NC(=O)[C@H](Cc1ccc(O)cc1)NC(=O)[C@H](CO)NC(=O)[C@H](CO)NC(=O)[C@@H](NC(=O)[C@H](CC(=O)O)NC(=O)[C@H](CO)NC(=O)[C@@H](NC(=O)[C@H](Cc1ccccc1)NC(=O)[C@@H](NC(=O)CNC(=O)[C@H](CCC(=O)O)NC(=O)[C@H](C)NC(=O)CCc1c[nH]cn1)[C@@H](C)O)[C@@H](C)O)C(C)C)C(=O)N[C@@H](C)C(=O)N[C@@H](Cc1c[nH]c2ccccc12)C(=O)N[C@@H](CC(C)C)C(=O)N[C@H](C(=O)N[C@@H](CCCNC(=N)N)C(=O)NCC(=O)N[C@@H](CCCNC(=N)N)C(=O)N[C@@H](CCCCNC(=O)COCCOCCNC(=O)COCCOCCNC(=O)CC[C@H](NC(=O)CCCCCCCCCCCCCCCCC(=O)O)C(=O)O)C(=O)NCC(=O)NCC(=O)N[C@@H](CO)C(=O)N[C@@H](CCCCNc1c(NCCCCCN(O)C(=O)CCC(=O)NCCCCCN(O)C(=O)CCC(=O)NCCCCCN(O)C(C)=O)c(=O)c1=O)C(=O)O)C(C)C [zirconium-89 labelled],,,"rat, bone marrow","iv, 3 nmol/kg, 24 h, ex vivo",,tissue uptake,0.99 %ID/g
Nc1ccc2cc3ccccc3cc2c1,Salmonella typhimurium,"Ames test, confirmatory",TA1535,"1.0 µg/plate, added: rat liver S9",baseline: solvent control,revertant ratio,5.2
COc1cc2c(cc1C(F)(F)F)N(C(=O)Nc1cc(F)cc(-c3cccnc3)c1)CC2,Plasmodium falciparum,,GB4,,,IC50,1580 nM
[Cl-].[Cl-].[Pt+2].[Ru+2].c1ccc(-c2nc3ccccc3nc2-c2ccccn2)nc1.c1cnc2c(c1)ccc1cccnc12.c1cnc2c(c1)ccc1cccnc12,Danio rerio,,embryos,"45 µM, 48 h",,survival rate,80 ± 3%
C[C@H]1CN(c2n[nH]c3nc(N[C@H]4CC[C@H](NS(=O)(=O)CCC(F)(F)F)CC4)ncc23)CCO1,"PKN1 (Homo sapiens, UniProt Q16512)","inhibitor, Kinobeads competition profiling",,0.16 µM,baseline: vehicle,relative abundance,0.99
O=[N+]([O-])c1ccc(N2CCC(NCCC(O)c3ccc(F)c4ccccc34)CC2)c(C(F)(F)F)c1 (stereo not drawn),Salmonella typhimurium,SOS/umu test,TA1535/pSK1002,"0.004 mg/mL, 4 h, without S9, lower range",,survival,98.8%
COc1cc2c(Oc3ccc4[nH]c(C)cc4c3F)ccnc2cc1OCC1(N)CC1,,,paediatric recurrent refractory sarcoma,8 mg/kg,,grade 1 or 2 ALP elevation,26.7%
CCCCN(CCCC)CC(O)c1cc(Cl)cc2c1-c1ccc(Cl)cc1/C2=C/c1ccc(Cl)cc1 (stereo not drawn),Plasmodium falciparum,,W2,,baseline: HepG2 CC50 over IC50,selectivity index,> 24000
CNC(=O)c1c(N(C)N=O)ncn1C,Salmonella typhimurium,plate incorporation,"TA1535, water","150 µg/plate, without S9",,revertant colonies per plate,32 ± 3
COc1cccc(-c2n[nH]c(SCc3ccccn3)n2)c1OC,Salmonella typhimurium,"Ames test, plate incorporation",TA1535,"0.50 mg/plate, with rat liver S9",,revertant colonies per plate,13
[Cl-].[Cl-].[Pt+2].[Ru+2].c1ccc(-c2nc3cc4ccccc4cc3nc2-c2ccccn2)nc1.c1cnc2c(c1)ccc1cccnc12.c1cnc2c(c1)ccc1cccnc12,Danio rerio,,embryos,"75 µM, 96 h",,survival rate,63.3 ± 3.8%
OC(CCN1CC=C(c2ccc(F)cc2)CC1)c1ccc(F)c2ccccc12 (stereo not drawn),Salmonella typhimurium,"genotoxicity, SOS/umu test",TA1535/pSK1002,"0.063 mg/mL, 4 h, with S9, lower range",,induction factor,0.9
COc1ccnc(C(=O)N[C@H]2COC(=O)[C@H](Cc3ccccc3)[C@@H](OC(=O)C(C)C)[C@H](C)OC2=O)c1OCOC(=O)C(C)C,Pimephales promelas,mortality,,"water exposure, flow-through, 96 h",,LC50,1.79 ng/mL
Fc1ccc(C(OCCCc2c[nH]cn2)c2ccc(F)cc2)cc1,Plasmodium falciparum,,GB4,,,IC50,1000 nM
O=[N+]([O-])c1ccc(N2CCN(CCC(O)c3ccc(F)cc3)CC2)c(C(F)(F)F)c1 (stereo not drawn),Salmonella typhimurium,SOS/umu test,"TA1535/pSK1002, TGA medium","0.000244 mg/mL, 4 h, without S9",,survival,124%
COc1cc(Nc2ncc(F)c(Nc3ccc4c(n3)NC(=O)C(C)(C)O4)n2)cc(OC)c1OC,"ALOX12 (Homo sapiens, UniProt P18054)",,,,,IC50,> 10000 nM
CC(=O)N1CCC(C(=O)N2CCN3C(=O)c4cc(-c5ccccc5)ccc4NC(=O)C3C2)CC1 (stereo not drawn),Escherichia coli,,WP2 uvrA,"5.0 µg/plate, without S9",,revertants per plate,21.5
Cc1cc(C(=O)NC(C)(C)COc2cccc3c2C(N)=NS(=O)(=O)N3)cc(C)n1,Escherichia coli,"Ames test, initial",WP2 uvrA,"150 µg/plate, added: rat liver S9",baseline: solvent control,revertant ratio,1
O=C(NC(=O)c1ccccc1Cl)Nc1ccc(Cl)cc1,Ostrinia furnacalis,leaf dipping,,"500 mg/L, 96 h",,mortality,85.4 ± 2.3%
O[C@H](CNCCN1CCN(C(c2ccccc2)c2ccccc2)CC1)c1cc(Cl)cc2c1-c1ccc(Cl)cc1C2,Plasmodium falciparum,,W2,,baseline: HepG2 CC50 over IC50,selectivity index,615
[Cl-].[Cl-].[Pt+2].[Ru+2].c1ccc(-c2nccnc2-c2ccccn2)nc1.c1cnc2c(c1)ccc1cccnc12.c1cnc2c(c1)ccc1cccnc12,Danio rerio,,embryos,"75 µM, 0 h",,survival rate,100%
CO[C@H]1C[C@@H]2CC[C@@H](C)[C@@](O)(O2)C(=O)C(=O)N2CCCC[C@H]2C(=O)O[C@H]([C@H](C)C[C@@H]2CC[C@@H](OC(=O)NCCOCCOCCOCCOCCOCCOCCOCCOCCC(=O)N3CCc4cc(Cn5nc(-c6ccc7oc(N)nc7c6)c6c(N)ncnc65)ccc4C3)[C@H](OC)C2)C[C@@H](O)[C@H](C)/C=C(\C)[C@@H](O)[C@@H](OC)C(=O)[C@H](C)C[C@H](C)/C=C/C=C/C=C/1C,,,patients with advanced solid tumours,"intravenous, 8 mg weekly, grade 3 or higher",,anaemia incidence,25%
O=[N+]([O-])c1ccc(NC2CCNCC2)c(C(F)(F)F)c1,Salmonella typhimurium,SOS/umu test,TA1535/pSK1002,"0.5 mg/mL, 4 h, with S9, full range",,survival,83.1%

# Repeated from above:
Compound,target or system,assay,test system,setting,scale,endpoint,result
COc1cccc(-c2n[nH]c(SCc3ccccn3)n2)c1OC,Salmonella typhimurium,"Ames test, plate incorporation",TA1535,"0.50 mg/plate, with rat liver S9",,revertant colonies per plate,13
[Cl-].[Cl-].[Pt+2].[Ru+2].c1ccc(-c2nc3cc4ccccc4cc3nc2-c2ccccn2)nc1.c1cnc2c(c1)ccc1cccnc12.c1cnc2c(c1)ccc1cccnc12,Danio rerio,,embryos,"75 µM, 96 h",,survival rate,63.3 ± 3.8%
